Measured values of several laboratories.
Parts stem from different laboratories: compare values within a part only.
UniProt Q96Q40, sequence (whole entry, looked up): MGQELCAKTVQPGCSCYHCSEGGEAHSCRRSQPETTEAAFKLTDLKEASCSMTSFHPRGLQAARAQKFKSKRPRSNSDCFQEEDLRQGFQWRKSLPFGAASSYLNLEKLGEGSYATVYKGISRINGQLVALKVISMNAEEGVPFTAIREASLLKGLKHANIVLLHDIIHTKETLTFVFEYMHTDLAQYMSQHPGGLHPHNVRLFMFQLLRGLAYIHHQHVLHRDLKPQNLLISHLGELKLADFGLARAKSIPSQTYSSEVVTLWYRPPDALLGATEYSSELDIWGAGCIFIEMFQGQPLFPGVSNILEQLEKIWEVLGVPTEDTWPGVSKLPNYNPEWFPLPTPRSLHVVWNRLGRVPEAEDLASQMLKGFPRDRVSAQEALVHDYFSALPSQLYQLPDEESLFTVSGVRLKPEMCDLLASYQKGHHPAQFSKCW
UniProt P19525, sequence (whole entry, looked up): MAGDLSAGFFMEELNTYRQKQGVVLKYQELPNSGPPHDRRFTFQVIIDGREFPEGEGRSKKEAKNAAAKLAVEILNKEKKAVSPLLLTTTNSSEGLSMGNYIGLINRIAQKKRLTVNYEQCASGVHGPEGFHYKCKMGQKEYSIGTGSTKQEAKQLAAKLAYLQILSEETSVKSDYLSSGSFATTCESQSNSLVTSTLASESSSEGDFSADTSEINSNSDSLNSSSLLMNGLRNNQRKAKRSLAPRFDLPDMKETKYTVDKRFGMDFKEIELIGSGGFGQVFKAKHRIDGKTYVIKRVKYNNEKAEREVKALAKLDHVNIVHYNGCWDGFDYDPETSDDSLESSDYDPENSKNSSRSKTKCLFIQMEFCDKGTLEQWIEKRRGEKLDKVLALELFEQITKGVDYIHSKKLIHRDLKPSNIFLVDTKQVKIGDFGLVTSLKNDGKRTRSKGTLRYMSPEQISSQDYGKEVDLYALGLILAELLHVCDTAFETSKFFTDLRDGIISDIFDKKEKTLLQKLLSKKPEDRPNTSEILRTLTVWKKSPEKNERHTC
UniProt P51617, sequence (whole entry, looked up): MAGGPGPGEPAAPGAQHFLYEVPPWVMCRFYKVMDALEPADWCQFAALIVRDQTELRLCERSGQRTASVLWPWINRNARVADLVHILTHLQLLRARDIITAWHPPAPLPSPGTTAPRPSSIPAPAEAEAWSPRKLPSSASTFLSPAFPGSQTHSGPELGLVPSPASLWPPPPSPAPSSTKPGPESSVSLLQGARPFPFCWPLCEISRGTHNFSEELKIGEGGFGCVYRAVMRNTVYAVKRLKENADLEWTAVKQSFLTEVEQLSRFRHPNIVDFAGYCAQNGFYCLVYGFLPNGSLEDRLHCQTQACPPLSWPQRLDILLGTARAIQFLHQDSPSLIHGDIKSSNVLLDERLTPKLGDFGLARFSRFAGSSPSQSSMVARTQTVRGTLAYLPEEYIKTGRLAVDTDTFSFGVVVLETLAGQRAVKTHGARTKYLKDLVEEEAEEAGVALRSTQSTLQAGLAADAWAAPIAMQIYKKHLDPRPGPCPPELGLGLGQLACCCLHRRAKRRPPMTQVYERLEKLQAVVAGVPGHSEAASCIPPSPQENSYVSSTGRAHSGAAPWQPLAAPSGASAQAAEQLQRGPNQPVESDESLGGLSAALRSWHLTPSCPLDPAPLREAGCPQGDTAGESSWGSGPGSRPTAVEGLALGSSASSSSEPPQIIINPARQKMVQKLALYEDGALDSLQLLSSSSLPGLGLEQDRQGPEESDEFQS
UniProt O14920, sequence (whole entry, looked up): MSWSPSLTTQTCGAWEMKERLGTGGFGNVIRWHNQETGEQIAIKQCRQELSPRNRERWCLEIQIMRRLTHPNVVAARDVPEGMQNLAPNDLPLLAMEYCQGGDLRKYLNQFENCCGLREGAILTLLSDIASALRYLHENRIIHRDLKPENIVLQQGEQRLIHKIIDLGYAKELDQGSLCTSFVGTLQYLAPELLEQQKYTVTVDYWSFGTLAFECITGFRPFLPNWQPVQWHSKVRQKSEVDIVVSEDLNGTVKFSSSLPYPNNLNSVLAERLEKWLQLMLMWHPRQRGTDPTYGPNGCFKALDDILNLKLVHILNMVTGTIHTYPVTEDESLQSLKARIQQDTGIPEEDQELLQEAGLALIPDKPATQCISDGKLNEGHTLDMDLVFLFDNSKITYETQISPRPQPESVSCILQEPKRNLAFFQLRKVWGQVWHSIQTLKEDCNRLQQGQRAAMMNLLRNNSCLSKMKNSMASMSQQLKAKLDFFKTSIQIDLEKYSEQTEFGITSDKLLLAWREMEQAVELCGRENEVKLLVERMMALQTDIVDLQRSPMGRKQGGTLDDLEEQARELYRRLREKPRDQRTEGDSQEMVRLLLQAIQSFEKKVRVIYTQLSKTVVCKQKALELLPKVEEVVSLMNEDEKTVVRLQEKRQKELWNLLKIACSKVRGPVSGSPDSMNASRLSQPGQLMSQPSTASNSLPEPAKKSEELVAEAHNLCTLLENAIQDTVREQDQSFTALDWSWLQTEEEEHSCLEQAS
UniProt Q8NFD2, sequence (whole entry, looked up): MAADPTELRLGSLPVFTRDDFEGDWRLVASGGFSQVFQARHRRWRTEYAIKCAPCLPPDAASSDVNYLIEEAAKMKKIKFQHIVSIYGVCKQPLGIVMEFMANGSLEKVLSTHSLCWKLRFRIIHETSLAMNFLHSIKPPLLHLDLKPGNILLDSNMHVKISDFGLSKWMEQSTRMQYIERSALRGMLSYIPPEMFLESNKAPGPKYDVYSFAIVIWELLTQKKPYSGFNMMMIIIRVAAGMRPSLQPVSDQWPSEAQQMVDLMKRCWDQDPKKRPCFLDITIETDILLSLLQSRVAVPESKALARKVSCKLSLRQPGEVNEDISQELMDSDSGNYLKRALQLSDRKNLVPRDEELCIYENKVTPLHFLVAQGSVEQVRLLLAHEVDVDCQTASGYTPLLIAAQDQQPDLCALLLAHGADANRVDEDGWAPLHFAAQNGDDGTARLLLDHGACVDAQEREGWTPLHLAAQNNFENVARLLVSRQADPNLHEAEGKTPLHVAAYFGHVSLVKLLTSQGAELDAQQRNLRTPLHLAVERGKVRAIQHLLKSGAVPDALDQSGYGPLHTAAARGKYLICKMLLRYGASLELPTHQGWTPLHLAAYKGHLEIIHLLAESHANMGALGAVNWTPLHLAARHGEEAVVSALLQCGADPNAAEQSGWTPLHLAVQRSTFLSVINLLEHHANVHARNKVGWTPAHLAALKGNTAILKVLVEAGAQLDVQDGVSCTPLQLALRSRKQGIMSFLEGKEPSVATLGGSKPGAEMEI
UniProt Q15349, sequence (whole entry, looked up): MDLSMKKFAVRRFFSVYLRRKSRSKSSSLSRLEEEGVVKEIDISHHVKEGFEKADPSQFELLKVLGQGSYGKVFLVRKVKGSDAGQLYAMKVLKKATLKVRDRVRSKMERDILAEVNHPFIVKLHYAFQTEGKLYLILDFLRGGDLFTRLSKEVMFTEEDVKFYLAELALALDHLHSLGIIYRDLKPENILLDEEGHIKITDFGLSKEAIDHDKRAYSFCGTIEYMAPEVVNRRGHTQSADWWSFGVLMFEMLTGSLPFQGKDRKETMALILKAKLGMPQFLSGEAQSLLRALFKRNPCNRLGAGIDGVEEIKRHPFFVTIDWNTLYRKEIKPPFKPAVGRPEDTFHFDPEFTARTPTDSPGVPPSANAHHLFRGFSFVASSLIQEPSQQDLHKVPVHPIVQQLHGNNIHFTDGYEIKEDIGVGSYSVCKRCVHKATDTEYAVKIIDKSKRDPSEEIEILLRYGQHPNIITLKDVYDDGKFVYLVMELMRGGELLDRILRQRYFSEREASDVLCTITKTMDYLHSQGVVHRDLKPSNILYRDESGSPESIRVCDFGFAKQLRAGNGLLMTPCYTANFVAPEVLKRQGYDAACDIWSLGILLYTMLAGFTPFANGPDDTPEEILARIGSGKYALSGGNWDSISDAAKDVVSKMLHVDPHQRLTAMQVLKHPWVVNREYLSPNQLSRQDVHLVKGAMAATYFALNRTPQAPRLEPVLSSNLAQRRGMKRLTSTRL
UniProt Q08345, sequence (whole entry, looked up): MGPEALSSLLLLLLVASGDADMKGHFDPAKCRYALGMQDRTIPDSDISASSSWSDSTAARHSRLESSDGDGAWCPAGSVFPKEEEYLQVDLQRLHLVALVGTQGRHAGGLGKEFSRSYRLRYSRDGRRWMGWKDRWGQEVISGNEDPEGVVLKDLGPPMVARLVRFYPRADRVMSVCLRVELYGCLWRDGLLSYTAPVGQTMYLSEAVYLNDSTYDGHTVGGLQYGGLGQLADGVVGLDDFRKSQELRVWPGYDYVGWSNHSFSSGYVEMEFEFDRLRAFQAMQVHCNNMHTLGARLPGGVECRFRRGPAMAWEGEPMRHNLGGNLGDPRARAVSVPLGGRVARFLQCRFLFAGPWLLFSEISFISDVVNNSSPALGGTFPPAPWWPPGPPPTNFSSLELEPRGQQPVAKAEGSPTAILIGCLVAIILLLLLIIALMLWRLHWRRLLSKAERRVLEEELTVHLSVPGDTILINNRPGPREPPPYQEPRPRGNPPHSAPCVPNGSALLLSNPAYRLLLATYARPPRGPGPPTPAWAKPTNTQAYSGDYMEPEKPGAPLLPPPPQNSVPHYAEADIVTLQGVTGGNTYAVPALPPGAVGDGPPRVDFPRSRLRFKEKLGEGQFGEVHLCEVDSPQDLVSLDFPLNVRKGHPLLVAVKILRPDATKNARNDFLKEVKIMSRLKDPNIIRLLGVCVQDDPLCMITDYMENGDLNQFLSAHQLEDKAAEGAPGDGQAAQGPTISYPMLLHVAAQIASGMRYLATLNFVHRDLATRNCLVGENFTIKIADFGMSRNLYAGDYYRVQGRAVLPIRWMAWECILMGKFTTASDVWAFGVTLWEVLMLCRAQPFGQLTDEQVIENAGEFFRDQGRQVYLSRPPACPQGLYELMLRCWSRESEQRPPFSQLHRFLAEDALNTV

Study 1
Substance: H2BC12 (Homo sapiens, UniProt O60814)
Method: cross-linking MS
Setting: hits only
H2AC21 (Homo sapiens, UniProt Q8IUE6) — interaction screen: “cross-linked”.
H2AC11 (Homo sapiens, UniProt P0C0S8) — interaction screen: “cross-linked”.
It gave “cross-linked” for interaction screen (H2AC7 (Homo sapiens, UniProt P20671)).
The interaction screen was “cross-linked” (H2BC9 (Homo sapiens, UniProt Q93079)).

Study 2
Structure (SMILES): Cn1cc(Cl)c2c(Oc3c(F)cc(Nc4cc(Cl)nc(N)n4)cc3F)ccnc21
Method: competition with immobilised ligand
Concentration: 0.1 µM
Interferon-induced, double-stranded RNA-activated protein kinase (EIF2AK2, Homo sapiens, UniProt P19525); cell-free assay — remaining binding: 100%.
The remaining binding was 87% (Inhibitor of nuclear factor kappa-B kinase subunit beta (IKBKB, Homo sapiens, UniProt O14920); cell-free assay).
It gave 94% for remaining binding (Cyclin-dependent kinase 15 (CDK15, Homo sapiens, UniProt Q96Q40); cell-free assay).
The remaining binding was 57% (Myosin-IIIb (MYO3B, Homo sapiens, UniProt Q8WXR4); binding).
The remaining binding was 100% (Casein kinase I isoform gamma-3 (CSNK1G3, Homo sapiens, UniProt Q9Y6M4); cell-free assay).
For Ribosomal protein S6 kinase alpha-2, C-terminal kinase domain (RPS6KA2, Homo sapiens, UniProt Q15349); cell-free assay: remaining binding read 100%.
Ankyrin repeat and protein kinase domain-containing protein 1 (ANKK1, Homo sapiens, UniProt Q8NFD2); cell-free assay — remaining binding: 83%.
For Proto-oncogene tyrosine-protein kinase Src (SRC, Homo sapiens, UniProt P12931); cell-free assay: remaining binding read 92%.
The remaining binding was 95% (Proto-oncogene tyrosine-protein kinase receptor Ret (RET, Homo sapiens, UniProt P07949, V804M); cell-free assay).
Cyclin-dependent kinase-like 5 (CDKL5, Homo sapiens, UniProt O76039); cell-free assay — remaining binding: 78%.
It gave 95% for remaining binding (Interleukin-1 receptor-associated kinase 1 (IRAK1, Homo sapiens, UniProt P51617); cell-free assay).
The remaining binding was 79% (Mast/stem cell growth factor receptor Kit (KIT, Homo sapiens, UniProt P10721, D816H); cell-free assay).
For Insulin receptor (INSR, Homo sapiens, UniProt P06213); cell-free assay: remaining binding read 90%.
Receptor-type tyrosine-protein kinase FLT3 (FLT3, Homo sapiens, UniProt P36888, K663Q); cell-free assay — remaining binding: 100%.
The remaining binding was 100% (Serine/threonine-protein kinase N1 (PKN1, Homo sapiens, UniProt Q16512); cell-free assay).
Epithelial discoidin domain-containing receptor 1 (DDR1, Homo sapiens, UniProt Q08345); cell-free assay — remaining binding: 100%.
Rhodopsin kinase GRK7 (GRK7, Homo sapiens, UniProt Q8WTQ7); cell-free assay — remaining binding: 82%.
For Uncharacterized serine/threonine-protein kinase SBK3 (SBK3, Homo sapiens, UniProt P0C264); cell-free assay: remaining binding read 65%.

Study 3
Target: RAF proto-oncogene serine/threonine-protein kinase (RAF1, Homo sapiens, UniProt P04049)
Effect on: enzyme activity
Mode: inhibitor
Concentration: 0.5 µM
Relative to: control
For `COc1ccc(Cl)cc1NC(=O)Nc1cc(C)nc2ccccc12`, the remaining activity was 94.8%.
With `CS(=O)(=O)CCNCc1ccc(-c2ccc3ncnc(Nc4ccc(OCc5cccc(F)c5)c(Cl)c4)c3c2)o1` the remaining activity was 85.9%.
`O=c1cc(N2CCOCC2)oc2c1ccc1ccccc12` has a remaining activity of 97.9%.
With `CN(C)CCCn1cc(C2=C(c3c[nH]c4ccccc34)C(=O)NC2=O)c2ccccc21` the remaining activity was 118%.
The remaining activity of `COc1cc2ncnc(Nc3ccc(OCc4ccccc4)cc3)c2cc1OC` is reported as 61%.
`CC(=O)O/N=C1/C(c2c(O)[nH]c3cc(Br)ccc23)=Nc2ccccc21` has a remaining activity of 100%.
With `COc1ccc(-c2cnc3c(-c4ccsc4)cnn3c2)cc1` the remaining activity was 95.5%.
`Nc1[nH]nc2nnc(-c3c(-c4ccccc4)nn4ccccc34)cc12` gave a remaining activity of 95.6%.
`CC(C)[C@H](CO)Nc1nc(Nc2cccc(Cl)c2)c2ncn(C(C)C)c2n1` gave a remaining activity of 98.9%.
`Cn1cnc2cc3c(Nc4cccc(Br)c4)ncnc3cc21` gave a remaining activity of 98.6%.
The remaining activity of `O=C(Nc1ccc(Cl)cc1)c1ccccc1NCc1ccncc1` is reported as 62.6%.
The remaining activity of `CCN1/C(=C/C(C)=O)Sc2ccc(OC)cc21` is reported as 95.9%.
`COc1cc2ncnc(N3CCN(C(=O)Nc4ccc(Oc5ccccc5)cc4)CC3)c2cc1OC` has a remaining activity of 88%.
For `Cc1ccc(NC(=O)c2ccc(CN3CCN(C)CC3)cc2)cc1Nc1nccc(-c2cccnc2)n1`, the remaining activity was 47.9%.
For `Cn1cc(/C=C2\C(=O)Nc3ccc(S(N)(=O)=O)cc32)c2ccccc21`, the remaining activity was 102%.
With `COc1cc2ncc(-c3ccccc3)nc2cc1OC` the remaining activity was 106%.
`O=C1NC(=O)/C(=C/c2ccc3nccnc3c2)S1` gave a remaining activity of 92.3%.
With `CC(C)c1nn(-c2c(Cl)cccc2Cl)c2nc(Cc3ccc(OCCO)cc3)[nH]c(=O)c12` the remaining activity was 95.8%.
With `CCOc1cc2ncnc(Nc3cccc(Br)c3)c2cc1OCC` the remaining activity was 91.6%.
The remaining activity of `Cc1nc(Nc2ncc(C(=O)Nc3c(C)cccc3Cl)s2)cc(N2CCN(CCO)CC2)n1` is reported as 39.7%.
For `CCC(=O)Nc1ccc2ncnc(Nc3cccc(Br)c3)c2c1`, the remaining activity was 98.4%.

Study 4
Target: Histone acetyltransferase KAT6A, winged helix 2, GST fusion (KAT6A, Homo sapiens, UniProt Q92794, residues 85-181)
Method: protein binding microarray
Form: double-stranded DNA, one strand shown
Matrix: in vitro
Concentration: not given
Setting: 8-mer, flanks averaged, mean of 2 arrays, mostly near background
Relative to: not given
Reading: higher = stronger binding
Target sequence (chain): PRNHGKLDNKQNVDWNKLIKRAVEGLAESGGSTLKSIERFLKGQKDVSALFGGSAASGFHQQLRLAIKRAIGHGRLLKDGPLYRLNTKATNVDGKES
`CGACTTTC` gave an E-score of -0.0965.
The E-score of `ACAACTGA` is reported as -0.0538.
For `ATTGTTCC`, the E-score was 0.00095.
The E-score of `CAGCGGGA` is reported as 0.156.
The E-score of `TGATGACA` is reported as -0.0893.
With `CCGTTGGA` the E-score was 0.0308.
For `CGGAATTA`, the E-score was -0.00968.
`CCTGTCAC` gave an E-score of -0.0409.

Repeated from above (study 3):
With `COc1cc2ncc(-c3ccccc3)nc2cc1OC` the remaining activity was 106%.
`O=C1NC(=O)/C(=C/c2ccc3nccnc3c2)S1` gave a remaining activity of 92.3%.
With `CC(C)c1nn(-c2c(Cl)cccc2Cl)c2nc(Cc3ccc(OCCO)cc3)[nH]c(=O)c12` the remaining activity was 95.8%.
